Experimental data from different studies.
Protocols differ between the studies behind these lines. Several values in a cell are separate wells, animals, samples, runs or records.
Cell line: Vero

Structure (SMILES) | test | conditions | measurement | result
Nc1ncnc2c1ncn2C[C@H](O)CO | cell morphology alteration |  | minimum cytotoxic concentration | > 250 µM
Cc1nn(-c2ccc(Cl)cc2)c2c1C(c1ccc(Br)cc1)C(C#N)=C(N)O2 (stereo not drawn) | MTT | 100 µM | viability | 42.6%
[O-][n+]1ccccc1SSc1cccc[n+]1[O-] | cytotoxicity |  | IC50 | 12.9 µM
O=C1CCCCN1c1ccc(CO[C@@H]2COc3nc([N+](=O)[O-])cn3C2)cc1F | cytotoxicity |  | IC50 | > 100 µg/mL
COc1c(C)c2c(c(O)c1C/C=C(\C)CCC(=O)O)C(=O)OC2 | item: cell morphology |  | minimal cytotoxic concentration | > 100 µM
N#C[Se]CC1Cc2ccc(Oc3ccc(F)cc3)cc2O1 (racemic) | cell viability, AlamarBlue |  | EC50 | > 10 µM
N#C[C@@]1(n2ccc(N)nc2=O)O[C@H](COP(=O)(O)OP(=O)(O)OP(=O)(O)O)[C@@H](O)[C@H]1O | cellular egress | 10 µM, 24 h preincubation | half-life | 4.1 h
N#C[Se]CC1Cc2c(Oc3ccc(F)cc3)cccc2O1 (racemic) | cell viability, AlamarBlue |  | EC50 | > 10 µM
Nc1nc(CC(O)c2ccc(Cl)cc2)c(Br)c(=O)[nH]1 (stereo not drawn) | cell morphology alteration |  | minimum cytotoxic concentration | > 100 µM
CC[C@@H](C)[C@H]1O[C@@H](c2c(O)c(-c3ccccc3)cn(OC)c2=O)[C@H](C)C[C@@H]1C | cytotoxicity, neutral red | 48 h | IC50 | > 4.76 µg/mL
Cc1nn(-c2ccc(Cl)cc2)c2c1C(c1ccc(Cl)c(Cl)c1)C(C#N)=C(N)O2 (stereo not drawn) | MTT | 25 µM | viability | 56.4%
O=C1CCCCN1c1ccc(CO[C@@H]2COc3nc([N+](=O)[O-])cn3C2)cn1 | cytotoxicity |  | IC50 | > 100 µg/mL
COc1ccc(C2C(C#N)=C(N)Oc3c2c(C)nn3-c2ccc(Cl)cc2)cc1 (stereo not drawn) | MTT | 100 µM | viability | 46.3%
Nc1nc(CC(O)c2ccccc2C(F)(F)F)c(Br)c(=O)[nH]1 (stereo not drawn) | cell morphology alteration |  | minimum cytotoxic concentration | > 100 µM
O=C(Nc1ccccc1F)c1cc2c(=O)n3ccccc3nc2n1Cc1ccccc1 | MTT | 25 µM, 24 (unit not given) | viability | 49.5%
N#C[Se]CC1Cc2cccc(Oc3ccc(F)cc3)c2O1 (racemic) | cell viability, AlamarBlue |  | EC50 | > 10 µM
CC(C)C[C@H](NC(=O)[C@H](C)NC(=O)[C@@H](NC(=O)[C@H](CCCNC(=N)N)NC(=O)[C@H](CC(C)C)NC(=O)[C@H](Cc1c[nH]c2ccccc12)NC(=O)[C@@H]1CCCN1C(=O)[C@@H](N)CCCCN)C(C)C)C(=O)N[C@@H](CS)C(=O)N1CCC[C@H]1C(=O)NCC(=O)O | WST-1 | 4 µM, 24 h | viability | 97.7% and 107% and 104%
CCc1ccc(NC(=O)c2cc3c(=O)n4ccccc4nc3n2C)cc1 | MTT | 1.6 µM, 24 (unit not given) | viability | 84.2%

Structure (SMILES) | test | conditions | measurement | result
Cc1nn(-c2ccc(Cl)cc2)c2c1C(c1ccc(Cl)cc1)C(C#N)=C(N)O2 (stereo not drawn) | MTT | 25 µM | viability | 53%
NC(=O)c1ncn([C@@H]2O[C@H](CO)[C@@H](O)[C@H]2O)n1 | cell morphology alteration |  | minimum cytotoxic concentration | > 250 µM
Cc1nn(-c2ccc(Cl)cc2)c2c1C(c1c(Cl)cccc1Cl)C(C#N)=C(N)O2 (stereo not drawn) | MTT | 100 µM | viability | 48.9%
N#C[Se]CC1Cc2ccc(Oc3cccc(F)c3)cc2O1 (racemic) | cell viability, AlamarBlue |  | EC50 | > 10 µM
Cn1c(C(=O)Nc2ccc3c(c2)OCCO3)cc2c(=O)n3ccccc3nc21 | cytotoxicity, MTT | 24 (unit not given) | IC50 | 151 µM
O=[N+]([O-])c1cn2c(n1)OC[C@@H](OCc1ccc(N3CCCCC3)nc1)C2 | cytotoxicity |  | IC50 | > 100 µg/mL
Cc1nn(-c2ccc(Cl)cc2)c2c1C(c1ccc(Cl)cc1Cl)C(C#N)=C(N)O2 (stereo not drawn) | MTT | 25 µM | viability | 51.8%
Cc1ccc(NC(=O)c2cc3c(=O)n4cccc(C)c4nc3n2C)cc1Cl | MTT | 0.4 µM, 24 (unit not given) | viability | 91.8%
O=C1COCCN1c1ccc(CO[C@@H]2COc3nc([N+](=O)[O-])cn3C2)cn1 | cytotoxicity |  | IC50 | > 100 µg/mL
Cn1c(C(=O)Nc2ccc(Cl)cc2)cc2c(=O)n3ccccc3nc21 | MTT | 6.3 µM, 24 (unit not given) | viability | 75.7%
Cc1nn(-c2ccc(Cl)cc2)c2c1C(c1ccc(I)cc1)C(C#N)=C(N)O2 (stereo not drawn) | MTT | 25 µM | viability | 58.8%
CC(=O)c1cccc(NC(=O)c2cc3c(=O)n4ccccc4nc3n2C)c1 | MTT | 6.3 µM, 24 (unit not given) | viability | 66.3%
CCC(CC)COC(=O)[C@H](C)N[P@](=O)(OC[C@H]1O[C@@](C#N)(c2ccc3c(N)ncnn23)[C@H](O)[C@@H]1O)Oc1ccccc1 |  |  | CC50 | > 100 µM
COc1cc(C2C(C#N)=C(N)Oc3c2c(C)nn3-c2ccc(Cl)cc2)cc(OC)c1OC (stereo not drawn) | MTT | 25 µM | viability | 59.3%
Cc1cc(NC(=O)c2cc3c(=O)n4cccc(C)c4nc3n2C)ccc1Br | MTT | 100 µM, 24 (unit not given) | viability | 52.1%
O=[N+]([O-])c1cn2c(n1)OC[C@@H](OCc1ccc(N3CCOCC3)nc1)C2 | cytotoxicity |  | IC50 | > 100 µg/mL
CCCCCc1nc(N)[nH]c(=O)c1Br | cell morphology alteration |  | minimum cytotoxic concentration | > 100 µM
Cc1cccn2c(=O)c3cc(C(=O)Nc4ccc(N(C)C)cc4)n(C)c3nc12 | MTT | 25 µM, 24 (unit not given) | viability | 58%

A few entries again:
Structure (SMILES) | test | conditions | measurement | result
N#C[C@@]1(n2ccc(N)nc2=O)O[C@H](COP(=O)(O)OP(=O)(O)OP(=O)(O)O)[C@@H](O)[C@H]1O | cellular egress | 10 µM, 24 h preincubation | half-life | 4.1 h
Cc1nn(-c2ccc(Cl)cc2)c2c1C(c1c(Cl)cccc1Cl)C(C#N)=C(N)O2 (stereo not drawn) | MTT | 100 µM | viability | 48.9%
O=C1CCCCN1c1ccc(CO[C@@H]2COc3nc([N+](=O)[O-])cn3C2)cc1F | cytotoxicity |  | IC50 | > 100 µg/mL
CCC(CC)COC(=O)[C@H](C)N[P@](=O)(OC[C@H]1O[C@@](C#N)(c2ccc3c(N)ncnn23)[C@H](O)[C@@H]1O)Oc1ccccc1 |  |  | CC50 | > 100 µM
COc1ccc(C2C(C#N)=C(N)Oc3c2c(C)nn3-c2ccc(Cl)cc2)cc1 (stereo not drawn) | MTT | 100 µM | viability | 46.3%
